Assay results collected from several papers.
A part holds a random share of what one study measured. Substitutions count along the parent as printed.

Series 1
Target: Protein C-ets-1 (ETS1, Homo sapiens, UniProt P14921, residues 1-441, full length assumed)
Method: protein-binding microarray
Form: double-stranded DNA, one strand shown
Matrix: in vitro
Tested at: not given
Notes: k-mer, scored over probes, only values ≥0.25
Reading: higher = stronger binding
Target sequence (chain): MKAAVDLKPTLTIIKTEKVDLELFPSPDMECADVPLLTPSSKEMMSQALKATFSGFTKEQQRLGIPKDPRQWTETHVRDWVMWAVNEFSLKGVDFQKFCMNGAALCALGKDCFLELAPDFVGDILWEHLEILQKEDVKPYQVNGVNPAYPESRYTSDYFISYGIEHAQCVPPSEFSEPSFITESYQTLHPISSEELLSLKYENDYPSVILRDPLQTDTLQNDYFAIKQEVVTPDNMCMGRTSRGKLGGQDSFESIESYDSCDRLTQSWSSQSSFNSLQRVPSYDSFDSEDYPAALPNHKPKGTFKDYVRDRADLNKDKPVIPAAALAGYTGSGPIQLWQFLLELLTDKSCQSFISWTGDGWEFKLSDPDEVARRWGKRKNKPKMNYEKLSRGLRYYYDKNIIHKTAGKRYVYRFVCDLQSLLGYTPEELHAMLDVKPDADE
Oligonucleotide	E-score
ATCATCCG	0.353
GGGATGTA	0.36
CCCCCGGA	0.393
CACCGGTG	0.33
GGAACCGA	0.309
CATCCTAG	0.253
CATCCTGC	0.456
AGGTTCCG	0.318
TGCTGGAA	0.267
CCGGACAA	0.317
ATCGGAAA	0.406
GGGCCGGA	0.451
ACGGATGA	0.29
CGGATAAC	0.372
CCGGTGCA	0.351
TAACCGGA	0.466
CGCCAGGA	0.304
GCGGAACC	0.339
TTCAGGAA	0.331
GGATGTTA	0.414
AGGATGCG	0.413
CGGATCTA	0.263
CAAGGATG	0.294
ATACGGAA	0.39

Series 2
Target: CCNE2, cyclin fold, Cln2 fusion (human)
Method: yeast growth competition, sequencing
Matrix: yeast
Notes: strong parent motif
Reference: not given
Reading: higher = stronger binding
Parent: RBL1 docking peptide (human); GSAKRRLFGEDPP; partner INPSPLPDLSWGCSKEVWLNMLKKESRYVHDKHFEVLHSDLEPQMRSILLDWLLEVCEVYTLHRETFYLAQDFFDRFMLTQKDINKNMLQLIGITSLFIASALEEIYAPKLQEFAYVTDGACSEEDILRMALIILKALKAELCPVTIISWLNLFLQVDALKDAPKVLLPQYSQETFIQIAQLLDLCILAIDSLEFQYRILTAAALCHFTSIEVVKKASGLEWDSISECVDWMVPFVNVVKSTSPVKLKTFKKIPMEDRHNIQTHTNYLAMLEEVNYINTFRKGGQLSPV
Substitution	normalised enrichment score
GSAKRRLFGEDPL [P13L]	5.01
GSAKRRLFGEDDP [P12D]	4.3
GSAKRKLFGEDPP [R6K]	4.02
GSAKRRLFAEDPP [G9A]	6.18
GSAKRRLEGEDPP [F8E]	-0.4
GSAKRRLFGEQPP [D11Q]	4.3
GSAKRRLFGEIPP [D11I]	3.14
GSAKRRLFGEYPP [D11Y]	4.89
GSAKRRLFGEDPK [P13K]	3.28
MSAKRRLFGEDPP [G1M]	4.17
GIAKRRLFGEDPP [S2I]	2.66
GSAKKRLFGEDPP [R5K]	1.28
GSAKARAFGEDPP [R5A L7A]	-0.418
GSANRRLFGEDPP [K4N]	1.04
GSAKRRLFGEDPF [P13F]	3.74
GSAKRRLFGEDPD [P13D]	3.93
GSAMRRLFGEDPP [K4M]	1.3
HSAKRRLFGEDPP [G1H]	4.82
GSSKRRLFGEDPP [A3S]	0.618
GSAKRRLYGEDPP [F8Y]	0.692
GSAKRRLFTEDPP [G9T]	5.3
GQAKRRLFGEDPP [S2Q]	3.7
GSAKMRLFGEDPP [R5M]	0.241
GSAKRRLFGEDCP [P12C]	4.05
GSATRRLFGEDPP [K4T]	2.06

Series 3
Target: Sal-like protein 4, full length isoform A (SALL4, Homo sapiens, UniProt Q9UJQ4, residues 1-1053)
Chain of UniProt Q9UJQ4 (whole entry, looked up): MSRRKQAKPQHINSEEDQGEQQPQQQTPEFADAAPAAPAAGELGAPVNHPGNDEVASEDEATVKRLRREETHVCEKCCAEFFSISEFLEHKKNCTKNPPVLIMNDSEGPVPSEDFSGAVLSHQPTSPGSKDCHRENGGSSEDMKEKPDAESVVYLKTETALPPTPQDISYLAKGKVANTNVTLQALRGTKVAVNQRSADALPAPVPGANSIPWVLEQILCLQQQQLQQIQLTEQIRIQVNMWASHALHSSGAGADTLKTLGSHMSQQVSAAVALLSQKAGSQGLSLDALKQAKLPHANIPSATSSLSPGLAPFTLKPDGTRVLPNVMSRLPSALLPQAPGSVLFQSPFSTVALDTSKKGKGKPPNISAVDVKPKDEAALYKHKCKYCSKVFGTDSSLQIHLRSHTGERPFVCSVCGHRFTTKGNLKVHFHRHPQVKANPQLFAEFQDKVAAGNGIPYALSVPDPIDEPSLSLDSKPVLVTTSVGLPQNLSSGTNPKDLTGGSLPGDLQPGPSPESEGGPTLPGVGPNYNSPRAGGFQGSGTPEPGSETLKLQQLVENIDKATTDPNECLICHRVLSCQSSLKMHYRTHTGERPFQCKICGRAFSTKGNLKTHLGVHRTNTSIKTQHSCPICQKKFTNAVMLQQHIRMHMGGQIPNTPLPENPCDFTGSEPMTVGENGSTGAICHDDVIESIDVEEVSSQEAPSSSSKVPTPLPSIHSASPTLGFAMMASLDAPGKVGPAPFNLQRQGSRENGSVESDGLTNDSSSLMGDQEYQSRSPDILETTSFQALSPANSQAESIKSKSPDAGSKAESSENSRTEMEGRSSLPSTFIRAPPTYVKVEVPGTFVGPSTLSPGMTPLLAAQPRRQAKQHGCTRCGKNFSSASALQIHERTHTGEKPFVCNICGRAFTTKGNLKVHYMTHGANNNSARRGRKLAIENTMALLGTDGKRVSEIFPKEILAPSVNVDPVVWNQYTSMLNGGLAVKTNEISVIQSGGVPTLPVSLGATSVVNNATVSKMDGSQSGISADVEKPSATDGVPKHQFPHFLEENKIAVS
Method: universal PBM
Form: double-stranded DNA, one strand shown
Matrix: in vitro
Tested at: 600 nM
Notes: 8-mer, flanks averaged, mean of replicates
Reading: higher = stronger binding
Oligonucleotide	E-score
AGGGGAGA	-0.213
TAGCGATA	0.21
GGGGGCAA	-0.121
GGTCAGAC	-0.246
ATCACTCG	0.0154
CATGTGTA	0.139
GCAAAAAC	0.138
ATGAACCC	-0.0368
ATCGATAG	0.206
CCTGGCCA	-0.263
CACCGGTG	-0.357
CCGACTCC	-0.21
CATCACAA	0.142
CACGTAGA	-0.0754
GTCTGATA	0.0748
TATGGGGA	0.0901
GTAGACTA	-0.0598
CTTCGTAA	0.136
CTTTGTCC	0.00668
AACAACTC	-0.0611
AAGCTAGT	0.15
GATAGTAA	0.178
GCAATGAA	0.0867
ACAAGCGC	-0.142
ATTACCTA	0.22

Series 4
Target: Ras GTPase-activating protein-binding protein 1, full length (G3BP1, Homo sapiens, UniProt Q13283)
Chain of UniProt Q13283 (whole entry, looked up): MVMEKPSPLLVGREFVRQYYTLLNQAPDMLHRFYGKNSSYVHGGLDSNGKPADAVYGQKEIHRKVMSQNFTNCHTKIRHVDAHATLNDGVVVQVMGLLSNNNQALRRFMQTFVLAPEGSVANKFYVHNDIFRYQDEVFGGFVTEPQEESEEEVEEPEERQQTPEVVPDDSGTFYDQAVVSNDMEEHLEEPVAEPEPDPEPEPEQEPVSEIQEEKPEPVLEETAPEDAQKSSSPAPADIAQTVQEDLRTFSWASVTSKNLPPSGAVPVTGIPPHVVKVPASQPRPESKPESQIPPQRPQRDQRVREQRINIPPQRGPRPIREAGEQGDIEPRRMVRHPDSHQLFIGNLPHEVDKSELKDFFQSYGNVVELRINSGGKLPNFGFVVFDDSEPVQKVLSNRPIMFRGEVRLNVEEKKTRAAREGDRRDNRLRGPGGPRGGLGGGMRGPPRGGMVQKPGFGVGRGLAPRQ
Method: RNA Bind-n-Seq
Form: RNA
Matrix: in vitro
Tested at: 200 nM
Notes: whole 134-nt RNA, ends assumed
With: 150 mM LiCl
Reference: input library
Reading: higher = stronger binding
Library: 7-deaza-guanosine replaces G
Shared flanks, not repeated: GGGAGUUCUACAGUCCGACGAUC … UGGAAUUCUCGGGUGUCAAGG
Oligonucleotide	log2 enrichment
CCUCAAGUCCUGUGCUACACAUCGUAUGUACCGAAUCGGGCCGGGCCGGCCGGAAAGUAUUAUGUUACGCCGUUCGGAUCUGCACUUCCA	0.918
CAAGUCCUGUGCUACACAUCGUAUGUACCGAAUCGGGAAAGGGGAAAGGAAAGGGAAAGUAUUAUGUUACGCCGUUCGGAUCUGCACUUC	-0.238
CCUGUGCUACACAUCGUAUGUACCGAAUCGGCCCCCCCGGGGCCCCCCCGGGCCCCCCCGGAAAGUAUUAUGUUACGCCGUUCGGAUCUG	-0.521
CAAGUCCUGUGCUACACAUCGUAUGUACCGAAUCGGGUUUUGGUUUUGGUUUUGGGAAAGUAUUAUGUUACGCCGUUCGGAUCUGCACUU	-1
CCUGUGCUACACAUCGUAUGUACCGAAUCGGGCCCCCCCGGGCCCCCCCGGGCCCCCCCGGAAAGUAUUAUGUUACGCCGUUCGGAUCUG	-0.119
GCAGGAAGUAAAAACAAAUGGAAAUGCUUCGGACAGUGGCAGGGGUGGGGGUUGCUAAGGAAAGGGUGGGAUGGGAGUGGGUAAAGAGUU	-0.0336
AAGUCCUGUGCUACACAUCGUAUGUACCGAAUCGGUUUUGGUUUUGGGGUUUUGGGGAAAGUAUUAUGUUACGCCGUUCGGAUCUGCACU	0.0534
UGUGCUACACAUCGUAUGUACCGAAUCGGGGCCCCCCCGGGGCCCCCCCGGCCCCCCCGGGGAAAGUAUUAUGUUACGCCGUUCGGAUCU	-0.308
UGGCCCUGGUGGCAUGCGGGGAGGAAGAUGUGGCCUCAUGGAUCGUGGUGGUCCCGGUGGAAUGUUCAGAGGUGGCCGUGGUGGAGACAG	0.099
UGGGAGGUGGAUUUUGUUUAUUUUUUUAGCUCAUUUCCAGGGGUGGGAAUUUUUUUUUAAUAUGUGUCAGGAAUAAAGUUGUUUUUGAAA	0.0144
GUCCUGUGCUACACAUCGUAUGUACCGAAUCGGGGUGGGGAAAAAAAGGGGUUUGGGGAAAGUAUUAUGUUACGCCGUUCGGAUCUGCAC	-0.505

Series 5
Target: TAR DNA-binding protein 43, full length, His tag (TARDBP, Homo sapiens, UniProt Q13148, residues 1-414)
Method: RNA Bind-n-Seq
Form: RNA
Matrix: in vitro
Tested at: 20 nM
Notes: 6-mer, flanks averaged, single round
With: 150 mM KCl
Reference: input library
Reading: higher = stronger binding
Oligonucleotide	6-mer enrichment (R)
AAAUGC	0.659
GCCGAA	0.928
CGGGCG	4.27
ACCGUC	0.615
AAUUUG	0.697
GGGGUA	3.78
AAAGUU	0.57
GUCGGC	1.39
CCGACA	0.681
AUUCGU	0.562
GAUAUG	0.892
ACAUCU	0.561
CGACGC	0.821
AUUUCU	0.573
ACGUAG	0.858
UUCGAC	0.578
GUGGAC	1.5
GAUGCA	0.895
AUGCUG	0.852
UGGCUA	0.793
AUGGUG	1.5
GGAUAU	0.863
ACAAGA	0.754
AGGUAU	0.837
GAAAUG	0.949

Series 6
Target: Histone acetyltransferase KAT6A, winged helix 2, GST fusion (KAT6A, Homo sapiens, UniProt Q92794, residues 85-181)
Method: protein binding microarray
Form: double-stranded DNA, one strand shown
Matrix: in vitro
Tested at: not given
Notes: 8-mer, flanks averaged, mean of 2 arrays, mostly near background
Reference: not given
Reading: higher = stronger binding
Residues (chain): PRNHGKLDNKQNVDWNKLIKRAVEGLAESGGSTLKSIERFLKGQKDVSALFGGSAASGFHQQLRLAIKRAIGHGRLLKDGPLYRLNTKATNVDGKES
Oligonucleotide	E-score
GATTGAAC	0.0245
TACCTGCA	-0.0301
CGCTATTA	0.0215
AAAACAGC	0.00257
GGAACGCC	-0.0208
CCCTAACA	0.124
AGTGCAAC	0.0276
CTCGTCGC	-0.0252
CCGTGGAC	-0.0962
CGGGGTAA	0.00639
GCCCCCAA	-0.105
AAGCCCTG	0.0743
ACGGTGTC	-0.111
CACCTATA	-0.186
CCTAAATA	-0.218
CGTTCGTA	0.0683
AGTTCAGG	-0.111
TCTGGCCA	-0.0313
AGCTTGAG	-0.0694
CGTGTGCC	0.00411
GCTGGAAC	0.016
AACACTGA	0.0121
CAATCGGA	0.116
ATTCTCGC	-0.109
CACTGTCC	-0.0192
